Measurements from different studies.
Each line is one published result; not all experiments were run side by side.

| Structure (SMILES) | organism | assay | system | conditions | MIC |
| --- | --- | --- | --- | --- | --- |
| CC1(C)[C@H](NC(=O)/C(=N\OCc2c(Cl)cccc2Cl)c2csc(N)n2)C(=O)N1OS(=O)(=O)O | Enterobacter cloacae | agar dilution | CDC 1000654 | – | > 64 µg/mL |
| CC[C@H](C)[C@@H]1NC(=O)[C@@H]([C@@H](C)O)NC(=O)CNC(=O)[C@H](CC(=O)O)NC(=O)CNC(=O)[C@H](CC(=O)O)NC(=O)CNC(=O)[C@H]2CCCCN2C(=O)[C@@H](NC(=O)[C@H](CC(=O)O)NC(=O)/C=C/CCCCCCCCCC(C)C)CNC(=O)[C@@H]2CCCN2C1=O | Enterococcus | broth microdilution | VRE 155, Mueller-Hinton broth, Mg2+ 10 mg/L | 16 h, added: Ca2+ 2.5 mM | 4 µg/mL |
| C[C@@H]1C(=O)O[C@@H](C)/C=C/C=C\[C@@H](C)[C@@H]2C=C[C@@H]3C[C@@]4(C)O[C@H]4[C@@H](C)[C@H]3[C@@H]2C(=O)C(Cl)(Cl)C1=O | Staphylococcus aureus | – | MRSA clinical isolate | resistant: OXA,CLI,DOX,ERY,GEN,SXT,TET | 0.1 µg/mL |
| CCCCO[C@H]1[C@H](O)[C@@H](N)[C@@H](O[C@H]2[C@H](O[C@@H]3O[C@H](CO)[C@@H](O[C@H]4O[C@@H](CN)[C@@H](O)[C@H](O)[C@H]4N)[C@H]3O)[C@@H](O)[C@H](N)C[C@@H]2N)O[C@@H]1CO | Mycolicibacterium smegmatis | microbial growth, broth dilution | – | 72 h | 8 to 16 µg/mL |
| CCCCCCC#Cc1cncc(-c2nnc(SCc3cc([N+](=O)[O-])cc([N+](=O)[O-])c3)n2C)c1 | Enterobacter cloacae | microbial growth, broth dilution | DSM30054 | – | > 64 µg/mL |
| CC1(C)[C@H](NC(=O)/C(=N\OCC(=O)N2CCC(C(=O)O)CC2)c2csc(N)n2)C(=O)N1OS(=O)(=O)O | Enterobacter cloacae | agar dilution | ATCC 43560, susceptible | – | 1 µg/mL |
| COc1cc(C(=O)Nc2ccc(C(=O)O)c(O)c2)ccc1NC(=O)c1ccc(NC(=O)[C@H](Cc2c[nH]nn2)NC(=O)c2ccc(NC(=O)/C(C)=C/c3ccc(O)cc3)cc2)cc1 | Enterococcus faecium | broth microdilution | ciprofloxacin-sensitive | – | 8 µg/mL |
| CC1(C)C(NC(=O)C(=NOC2(C(=O)O)CC2)c2csc(N)n2)C(=O)N1OS(=O)(=O)O (stereo not drawn) | Enterobacter cloacae | agar dilution | CDC 1000654 | – | 2 µg/mL |
| COc1c(NC(=O)c2ccc(NC(=O)c3ccc(NC(=O)[C@H](Cc4c[nH]nn4)NC(=O)c4ccc(NC(=O)/C(C)=C/c5ccc(O)cc5)cc4)cc3)c(OC)c2O)ccc(C(=O)O)c1O | Enterococcus faecium | broth microdilution | ciprofloxacin-resistant | – | 64 µg/mL |
| CC1(C)[C@H](NC(=O)/C(=N\OCCN)c2nsc(N)n2)C(=O)N1OS(=O)(=O)O | Enterobacter cloacae | agar dilution | CDC 1000654 | – | > 64 µg/mL |
| COc1c(NC(=O)c2ccc(NC(=O)c3ccc(NC(=O)[C@H](CC#N)NC(=O)c4ccc(NC(=O)/C(C)=C/c5ccc(O)cc5)cc4)cc3)c(OC)c2O)ccc(C(=O)O)c1O | Salmonella enterica | microbial growth, broth dilution | TYPHIMURIUM | – | 0.063 µg/mL |
| NC[C@@H]1O[C@H](O[C@H]2[C@@H](O)[C@H](O[C@@H]3[C@@H](O)[C@H](N)C[C@H](N)[C@H]3O[C@H]3O[C@H](CO)[C@@H](OCCCO)[C@H](O)[C@H]3N)O[C@@H]2CO)[C@H](N)[C@@H](O)[C@@H]1O | Mycolicibacterium smegmatis | microbial growth, broth dilution | – | 72 h | 64 µg/mL |
| COc1cc(C(=O)Nc2ccc(C(=O)O)c(O)c2OC)ccc1NC(=O)c1ccc(NC(=O)[C@H](Cc2c[nH]nn2)NC(=O)c2ccc(NC(=O)/C(C)=C/c3ccc(O)cc3)cc2)cc1 | Enterococcus faecium | broth microdilution | ciprofloxacin-sensitive | – | 4 µg/mL |
| NC[C@@H]1O[C@H](O[C@H]2[C@@H](O)[C@H](O[C@@H]3[C@@H](O)[C@H](N)C[C@H](N)[C@H]3O[C@H]3O[C@H](CO)[C@@H](OCCO)[C@H](O)[C@H]3N)O[C@@H]2CO)[C@H](N)[C@@H](O)[C@@H]1O | Mycolicibacterium smegmatis | microbial growth, broth dilution | – | 72 h | 2 µg/mL |
| CC1(C)[C@H](NC(=O)/C(=N\OC2(C(=O)O)CCCC2)c2csc(N)n2)C(=O)N1OS(=O)(=O)O | Enterobacter cloacae | agar dilution | ATCC 43560, susceptible | – | 0.5 µg/mL |
| COc1nc(C(=O)Nc2ccc(C(=O)O)nc2OC)ccc1NC(=O)c1ccc(NC(=O)[C@H](Cc2c[nH]nn2)NC(=O)c2ccc(NC(=O)/C(C)=C/c3ccc(O)cc3)cc2)cc1 | Enterococcus faecium | broth microdilution | ciprofloxacin-sensitive | – | 2 µg/mL |
| CC1(C)[C@H](NC(=O)/C(=N\OCCN)c2csc(N)n2)C(=O)N1OS(=O)(=O)O | Enterobacter cloacae | agar dilution | ATCC 43560, susceptible | – | 1 µg/mL |
| CC[C@H](C)[C@@H]1NC(=O)[C@H](CCC(=O)O)NC(=O)[C@@H]2CSSC[C@@H]3NC(=O)[C@H](Cc4ccc(O)cc4)NC(=O)[C@@H](NC(=O)[C@@H](NC(=O)[C@H](C)N)[C@@H](C)O)CSSC[C@@H](C(=O)N[C@@H](CCCNC(=N)N)C(=O)O)NC(=O)[C@H](CSSC[C@H](NC(=O)[C@H](CCCNC(=N)N)NC(=O)CNC(=O)[C@H]([C@@H](C)O)NC(=O)[C@H](CCCNC(=N)N)NC3=O)C(=O)N[C@@H](C)C(=O)N[C@@H]([C@@H](C)O)C(=O)N[C@@H](CCCNC(=N)N)C(=O)N[C@@H](CCC(=O)O)C(=O)N[C@@H](CO)C(=O)N[C@@H](CC(C)C)C(=O)N[C@@H](CO)C(=O)NCC(=O)N[C@@H](C(C)C)C(=O)N2)NC(=O)[C@H](CC(C)C)NC(=O)[C@H](CCCNC(=N)N)NC(=O)[C@H](Cc2ccc(O)cc2)NC(=O)[C@H](CC(C)C)NC(=O)[C@H](CCCNC(=N)N)NC(=O)CNC(=O)[C@H](CO)NC1=O | Enterococcus faecium | broth turbidity | 475747 | – | 11.2 µg/mL |
| CO[C@H]1/C=C/O[C@@]2(C)Oc3c(C)c(O)c4c(c3C2=O)C2=NC3(CCN(CC(C)C)CC3)NC2=C(NC(=O)/C(C)=C\C=C\[C@H](C)[C@H](O)[C@@H](C)[C@@H](O)[C@@H](C)[C@H](OC(=O)c2cccc(F)c2)[C@@H]1C)C4=O | Mycobacteroides abscessus | – | Bamboo clinical isolate | 90% growth inhibition | 0.068 µM |
| C=C/C=C(\C)CC[C@@H](O)C[C@H](O)CC(=O)OC | Salmonella enterica | microbial growth, broth dilution | ATCC14028 TYPHIMURIUM | – | 128 µg/mL |
| COc1c(NC(=O)c2ccc(NC(=O)c3ccc(NC(=O)[C@H](Cc4c[nH]nn4)NC(=O)c4ccc(NC(=O)/C(C)=C/c5ccc(O)cc5)cc4)cc3)cc2)ccc(C(=O)O)c1O | Enterococcus faecium | broth microdilution | ciprofloxacin-resistant | – | 32 µg/mL |
| Cc1c(CN(C)C(=O)/C=C/c2cnc3c(c2)CC(N)C(=O)N3)oc2ccccc12 (stereo not drawn) | Enterobacter cloacae | microbial growth, broth dilution | BAA2341 | – | 8 µg/mL |
| C#CCNC(=O)C(C)(C)O/N=C(\C(=O)N[C@@H]1C(=O)N(S(=O)(=O)O)[C@H]1C)c1csc(N)n1 | Enterobacter cloacae | agar dilution | ATCC 43560 susceptible | – | 2 µg/mL |
| COc1cc(C(=O)O)ccc1NC(=O)c1ccc(NC(=O)c2ccc(NC(=O)[C@H](Cc3c[nH]nn3)NC(=O)c3ccc(NC(=O)/C(C)=C/c4ccc(O)cc4)cc3)cc2)c(OC)c1 | Enterococcus faecium | broth microdilution | ciprofloxacin-sensitive | – | 32 µg/mL |

Repeated from above:
| Structure (SMILES) | organism | assay | system | conditions | MIC |
| --- | --- | --- | --- | --- | --- |
| CC1(C)[C@H](NC(=O)/C(=N\OCCN)c2csc(N)n2)C(=O)N1OS(=O)(=O)O | Enterobacter cloacae | agar dilution | ATCC 43560, susceptible | – | 1 µg/mL |
| C=C/C=C(\C)CC[C@@H](O)C[C@H](O)CC(=O)OC | Salmonella enterica | microbial growth, broth dilution | ATCC14028 TYPHIMURIUM | – | 128 µg/mL |
| CC1(C)[C@H](NC(=O)/C(=N\OCc2c(Cl)cccc2Cl)c2csc(N)n2)C(=O)N1OS(=O)(=O)O | Enterobacter cloacae | agar dilution | CDC 1000654 | – | > 64 µg/mL |
